Measurements pooled from the literature.
Each line is one published result; not all experiments were run side by side. Values joined by “and” are separate records of one study, mostly repeats; a detail may differ. ± gives the spread as reported.
TRPV1: Transient receptor potential cation channel subfamily V member 1 (TRPV1, Homo sapiens, UniProt Q8NER1)
UniProt Q8NER1, sequence (whole entry, looked up): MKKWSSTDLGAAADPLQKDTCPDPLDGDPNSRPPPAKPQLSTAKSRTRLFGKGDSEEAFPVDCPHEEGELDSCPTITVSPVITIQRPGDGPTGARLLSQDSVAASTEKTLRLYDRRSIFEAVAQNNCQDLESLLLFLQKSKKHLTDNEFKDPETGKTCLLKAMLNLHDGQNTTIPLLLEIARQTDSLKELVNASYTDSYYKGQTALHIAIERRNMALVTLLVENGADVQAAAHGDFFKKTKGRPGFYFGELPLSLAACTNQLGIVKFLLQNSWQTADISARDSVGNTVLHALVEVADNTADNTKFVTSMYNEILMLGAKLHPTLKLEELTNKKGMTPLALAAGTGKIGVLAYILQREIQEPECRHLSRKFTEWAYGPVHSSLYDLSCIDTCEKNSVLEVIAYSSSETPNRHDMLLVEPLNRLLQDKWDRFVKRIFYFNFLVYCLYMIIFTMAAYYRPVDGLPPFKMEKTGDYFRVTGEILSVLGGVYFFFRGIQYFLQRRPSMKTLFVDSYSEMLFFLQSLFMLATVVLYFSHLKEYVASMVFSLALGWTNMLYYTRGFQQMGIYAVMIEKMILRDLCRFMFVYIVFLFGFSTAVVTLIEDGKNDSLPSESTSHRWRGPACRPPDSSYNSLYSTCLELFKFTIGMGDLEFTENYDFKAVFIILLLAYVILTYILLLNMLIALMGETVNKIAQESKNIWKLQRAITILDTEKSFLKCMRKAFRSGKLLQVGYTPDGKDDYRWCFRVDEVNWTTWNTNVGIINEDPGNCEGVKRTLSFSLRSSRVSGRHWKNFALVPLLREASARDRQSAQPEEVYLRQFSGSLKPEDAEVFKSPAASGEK
GRPR: Gastrin-releasing peptide receptor (GRPR, Homo sapiens, UniProt P30550)
UniProt P30550, sequence (whole entry, looked up): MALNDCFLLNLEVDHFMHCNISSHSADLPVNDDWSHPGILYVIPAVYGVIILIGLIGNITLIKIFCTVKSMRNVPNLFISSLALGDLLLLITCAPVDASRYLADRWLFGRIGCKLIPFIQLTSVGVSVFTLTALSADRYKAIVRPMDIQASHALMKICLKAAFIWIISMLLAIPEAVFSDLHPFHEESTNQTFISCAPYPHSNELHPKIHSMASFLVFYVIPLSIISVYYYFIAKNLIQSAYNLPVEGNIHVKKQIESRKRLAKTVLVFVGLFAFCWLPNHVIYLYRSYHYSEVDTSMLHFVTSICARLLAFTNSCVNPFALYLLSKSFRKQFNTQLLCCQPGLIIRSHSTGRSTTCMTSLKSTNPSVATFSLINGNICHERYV
Proteasome component C5/PSMB5: Proteasome component C5/PSMB5 (Homo sapiens, UniProt P20618+P28074)
UniProt P20618, sequence (whole entry, looked up): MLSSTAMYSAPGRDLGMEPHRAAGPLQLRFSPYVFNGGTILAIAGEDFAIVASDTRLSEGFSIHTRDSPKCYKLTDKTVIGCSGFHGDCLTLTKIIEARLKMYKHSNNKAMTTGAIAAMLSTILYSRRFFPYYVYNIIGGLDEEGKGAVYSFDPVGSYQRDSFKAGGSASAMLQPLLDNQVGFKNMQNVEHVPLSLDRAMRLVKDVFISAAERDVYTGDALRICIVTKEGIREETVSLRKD
UniProt P28074, sequence (whole entry, looked up): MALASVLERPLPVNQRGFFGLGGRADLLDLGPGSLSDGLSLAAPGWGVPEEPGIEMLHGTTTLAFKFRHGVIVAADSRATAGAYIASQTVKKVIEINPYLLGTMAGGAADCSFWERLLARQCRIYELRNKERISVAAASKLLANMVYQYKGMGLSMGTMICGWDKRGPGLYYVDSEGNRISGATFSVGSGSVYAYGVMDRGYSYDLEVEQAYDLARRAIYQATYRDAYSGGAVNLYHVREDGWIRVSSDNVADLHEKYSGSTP
CACNA1C: Voltage-dependent L-type calcium channel subunit alpha-1C (CACNA1C, Homo sapiens, UniProt Q13936)
UniProt Q13936, sequence (whole entry, looked up): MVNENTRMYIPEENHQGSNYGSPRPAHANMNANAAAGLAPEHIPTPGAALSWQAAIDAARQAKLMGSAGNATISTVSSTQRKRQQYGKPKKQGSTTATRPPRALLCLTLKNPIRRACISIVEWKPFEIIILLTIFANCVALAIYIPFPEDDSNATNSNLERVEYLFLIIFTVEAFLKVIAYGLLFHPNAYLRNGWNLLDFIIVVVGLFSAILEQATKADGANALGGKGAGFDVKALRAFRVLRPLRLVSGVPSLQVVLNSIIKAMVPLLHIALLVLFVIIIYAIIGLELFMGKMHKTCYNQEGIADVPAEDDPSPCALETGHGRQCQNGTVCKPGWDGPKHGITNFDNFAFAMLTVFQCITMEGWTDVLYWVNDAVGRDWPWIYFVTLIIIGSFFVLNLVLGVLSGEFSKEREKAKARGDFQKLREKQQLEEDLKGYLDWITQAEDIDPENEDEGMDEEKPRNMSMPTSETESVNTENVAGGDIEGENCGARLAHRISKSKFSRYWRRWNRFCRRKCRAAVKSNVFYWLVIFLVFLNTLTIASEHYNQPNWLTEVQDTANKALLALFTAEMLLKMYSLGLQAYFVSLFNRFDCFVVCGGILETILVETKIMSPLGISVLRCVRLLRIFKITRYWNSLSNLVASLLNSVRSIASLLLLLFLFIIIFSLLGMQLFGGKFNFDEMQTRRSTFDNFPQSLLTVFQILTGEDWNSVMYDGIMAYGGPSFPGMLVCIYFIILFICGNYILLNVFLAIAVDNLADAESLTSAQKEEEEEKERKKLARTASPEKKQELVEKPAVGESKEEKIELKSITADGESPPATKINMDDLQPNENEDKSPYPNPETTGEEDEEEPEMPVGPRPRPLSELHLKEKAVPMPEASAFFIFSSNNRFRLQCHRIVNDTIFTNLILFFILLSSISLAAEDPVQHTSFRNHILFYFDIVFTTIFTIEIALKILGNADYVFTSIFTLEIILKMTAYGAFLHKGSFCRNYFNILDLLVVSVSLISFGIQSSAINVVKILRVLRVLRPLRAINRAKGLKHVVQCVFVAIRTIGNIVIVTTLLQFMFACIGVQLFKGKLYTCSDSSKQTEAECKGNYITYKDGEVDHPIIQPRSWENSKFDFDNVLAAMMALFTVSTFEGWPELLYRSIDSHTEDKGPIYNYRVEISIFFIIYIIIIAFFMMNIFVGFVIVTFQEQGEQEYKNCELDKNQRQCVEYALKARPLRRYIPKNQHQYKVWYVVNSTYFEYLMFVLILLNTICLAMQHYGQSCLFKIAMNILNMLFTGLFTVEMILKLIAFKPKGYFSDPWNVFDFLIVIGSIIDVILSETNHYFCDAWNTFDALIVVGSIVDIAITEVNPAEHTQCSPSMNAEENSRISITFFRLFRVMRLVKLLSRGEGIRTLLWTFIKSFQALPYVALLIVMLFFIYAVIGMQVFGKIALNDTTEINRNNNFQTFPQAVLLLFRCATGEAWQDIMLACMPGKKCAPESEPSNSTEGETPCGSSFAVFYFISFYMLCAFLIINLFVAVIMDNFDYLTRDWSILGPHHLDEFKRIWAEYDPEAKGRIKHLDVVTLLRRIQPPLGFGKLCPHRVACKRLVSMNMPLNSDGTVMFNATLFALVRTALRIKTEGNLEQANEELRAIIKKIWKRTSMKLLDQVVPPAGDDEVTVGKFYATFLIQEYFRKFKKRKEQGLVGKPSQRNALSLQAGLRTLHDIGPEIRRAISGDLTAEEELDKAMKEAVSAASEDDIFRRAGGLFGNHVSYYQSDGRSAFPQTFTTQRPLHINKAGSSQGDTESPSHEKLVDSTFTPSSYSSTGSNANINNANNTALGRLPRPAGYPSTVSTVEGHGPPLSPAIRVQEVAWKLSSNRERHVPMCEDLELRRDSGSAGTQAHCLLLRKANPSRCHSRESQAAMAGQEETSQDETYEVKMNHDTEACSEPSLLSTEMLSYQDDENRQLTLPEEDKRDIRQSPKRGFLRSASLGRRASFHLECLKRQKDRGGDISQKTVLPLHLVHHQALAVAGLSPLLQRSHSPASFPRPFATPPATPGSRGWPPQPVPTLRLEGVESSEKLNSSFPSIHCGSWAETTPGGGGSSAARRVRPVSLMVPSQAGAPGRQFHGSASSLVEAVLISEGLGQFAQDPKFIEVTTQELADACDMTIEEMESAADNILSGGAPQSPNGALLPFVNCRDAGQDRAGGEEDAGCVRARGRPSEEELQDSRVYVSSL
SRC: Proto-oncogene tyrosine-protein kinase Src (SRC, Homo sapiens, UniProt P12931)
UniProt Q13526, sequence (whole entry, looked up): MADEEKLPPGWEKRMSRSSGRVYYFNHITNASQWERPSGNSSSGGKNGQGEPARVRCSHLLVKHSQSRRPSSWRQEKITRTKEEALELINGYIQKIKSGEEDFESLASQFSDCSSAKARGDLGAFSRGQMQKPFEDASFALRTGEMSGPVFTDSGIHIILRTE
UniProt Q96DB2, sequence (whole entry, looked up): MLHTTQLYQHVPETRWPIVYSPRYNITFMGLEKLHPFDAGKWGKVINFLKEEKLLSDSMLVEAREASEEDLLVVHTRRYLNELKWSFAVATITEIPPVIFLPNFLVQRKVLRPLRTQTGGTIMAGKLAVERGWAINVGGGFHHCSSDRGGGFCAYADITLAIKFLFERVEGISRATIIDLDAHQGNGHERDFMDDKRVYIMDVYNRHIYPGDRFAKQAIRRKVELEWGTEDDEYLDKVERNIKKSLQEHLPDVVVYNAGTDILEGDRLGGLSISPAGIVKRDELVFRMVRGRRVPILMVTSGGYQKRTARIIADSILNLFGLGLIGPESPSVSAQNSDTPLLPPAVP

Compound	target	test	test system	setting	IC50
COC(=O)[C@H](Cc1c[nH]c2ccccc12)NCc1cc2ccccc2nc1SC	ATP synthase subunit c, whole ATP synthase complex (atpE, Pseudomonas aeruginosa, UniProt Q9HT15)	ATP synthesis, inhibitor	Pseudomonas aeruginosa, inverted membrane vesicles	10 min, added: NADH	4930 nM
CCC1(CC)C[C@@H](NC(=O)Nc2cccc3c(C)nccc23)c2cc(F)ccc2O1	TRPV1	calcium signal, antagonist, fluorescence			19 nM
NC(=O)N/N=C/c1ccccn1	SOD1 (Homo sapiens, UniProt P00441)	enzyme activity, inhibitor	HeLa	24 h	2920 nM
CC(C)C[C@@H](CN[C@@H](Cc1ccc(Cl)cc1)C(N)=O)NC(=O)[C@H](Cc1c[nH]cn1)NC(=O)CNC(=O)[C@@H](NC(=O)[C@H](C)NC(=O)[C@H](Cc1c[nH]c2ccccc12)NC(=O)[C@H](CCC(N)=O)NC(=O)[C@H](N)Cc1ccccc1)C(C)C	GRPR	inositol phosphate generation, antagonist	Balb 3T3 expressing GRPR	added: GRP 1 nM	10.3 ± 1.2 nM
COC(=O)N1CCC(CN2CCC(CNC(=O)c3cccc4[nH]c(C(C)C)nc34)CC2)CC1	SLCO1B3 (Homo sapiens, UniProt Q9NPD5)	transporter uptake, inhibitor			> 10000 nM
O=C(N[C@@H](CC1CCCCC1)C(=O)N[C@@H](C[C@H]1CCNC1=O)C(=O)C(=O)NC1CC1)OCc1cccc(Cl)c1	Genome polyprotein, 3C protease (rhinovirus B14, UniProt P03303)	3C protease activity, inhibitor, FRET			20 ± 10 nM
Cc1ccc(CNC(=O)[C@@H](NC(=O)[C@H](CCc2ccccc2)NC(=O)[C@H](CCc2ccccc2)N(C)C)C(C)C)cc1	Proteasome component C5/PSMB5	β5 activity, inhibitor		added: Suc-LLVY-AMC, PA28α-activated	807 nM
NC(=O)Nc1nc2cc(Br)ccc2[nH]c1=O	Chemotaxis protein CheA (Escherichia coli, UniProt P07363)	kinase activity, ATP-competitive		added: CheW	> 100000 nM
CN(C)CCN1CCN(c2ccc(Oc3ccc(F)cc3F)c(-c3cn(C)c(=O)c4[nH]ccc34)c2)S1(=O)=O	Bromodomain-containing protein 4, BD1 (BRD4, Homo sapiens, UniProt O60885)	cell-free assay, TR-FRET			1.19 nM
N=C(N)NCCCC(N)C(=O)NCC(=O)NC(CCCNC(=N)NCCCSCC1OC(n2cnc3c(N)ncnc32)C(O)C1O)C(N)=O (centres unmarked)	SETD7 (Homo sapiens, UniProt Q8WTS6)	enzyme activity, inhibitor, fluorescence			> 100000 nM
CC[C@H](C)[C@@H]1NC(=O)[C@@H](CCC(N)=O)NC(=O)CNC(=O)[C@H](Cc2ccc(O)cc2)N=C[C@H](CC(C)C)NC(=O)[C@H](C(C)C)NC(=O)[C@H](CO)NC1=O	Proteasome component C5/PSMB5	enzyme activity, inhibitor			96 nM
Cc1ccc(CNC(=O)C(CCc2ccccc2)NC(=O)C(NC(=O)c2ccc(OCc3ccc(C(C)(C)C)cc3)cc2)C(C)O)cc1 (centres unmarked)	Proteasome component C5/PSMB5	inhibitor			340 nM and ~500 nM
CC(=O)Oc1cc(-c2coc3cc(OC(C)=O)c(OC(C)=O)c(OC(C)=O)c3c2=O)cc(OC(C)=O)c1OC(C)=O	Bacillus subtilis RNase P	pre-tRNA cleavage, inhibitor, fluorescence polarization		1% DMSO, multiple turnover, added: 50 nM fluorescein-pre-tRNA(Asp)	820 ± 10 nM
O=C(NC1CCC1)c1ccc2nc(-c3cccc(NS(=O)(=O)NCCc4c[nH]cn4)c3)cn2c1	Protein ENL (MLLT1, Homo sapiens, UniProt Q03111)				7 nM
CCOc1ccc(NS(=O)(=O)c2ccc(C)c(C(=O)N3CCOC(c4ccccc4)C3)c2)cc1 (centres unmarked)	CACNA1C	calcium signal, fluorescence			9610 nM
CSCC[C@H](NC(=O)[C@H](Cc1ccccc1)NC(=O)[C@H](CO)NC(=O)CNC(=O)[C@@H](NC(=O)[C@H](C)NC(=O)[C@H](Cc1c[nH]c2ccccc12)NC(=O)[C@H](CC(C)C)NC(=O)[C@@H]1CCC(=O)N1)C(C)C)C(N)=O	GRPR	ligand displacement in cells, radioligand			> 3000 nM
CCOC(=O)C(CS)N1C(=O)c2ccc(N(C)C)cc2C1=O (centres unmarked)	VIM-2 (Escherichia coli, UniProt Q5U7L7)	enzyme activity, inhibitor		pH 7	130 nM
O=C(COc1cc2ccccc2cc1C(=O)NCc1ccccc1)Nc1ccccc1N1CCCC1=O	CACNA1C	calcium signal, fluorescence			10400 nM
N=C(N)NCCC[C@@H]1NC(=O)[C@H](Cc2c[nH]c3ccccc23)NC(=O)[C@H](CCCNC(=N)N)NC(=O)[C@H](Cc2c[nH]c3ccccc23)NC(=O)[C@H](CCCNC(=N)N)NC(=O)[C@H](Cc2c[nH]c3ccccc23)NC(=O)[C@H](CCCNC(=N)N)NC(=O)[C@H](Cc2c[nH]c3ccccc23)NC(=O)[C@H](CCCNC(=N)N)NC(=O)[C@H](Cc2c[nH]c3ccccc23)NC(=O)[C@H](CCCNC(=N)N)NC(=O)[C@H](Cc2c[nH]c3ccccc23)NC(=O)[C@H](CCCNC(=N)N)NC(=O)[C@H](Cc2c[nH]c3ccccc23)NC(=O)[C@H](CCCNC(=N)N)NC(=O)[C@H](Cc2c[nH]c3ccccc23)NC1=O	SRC	enzyme activity, inhibitor, radiometric			330 nM
O=c1c2ccccc2on1-c1ccccc1	HDAC11 (Homo sapiens, UniProt Q96DB2)	enzyme activity, inhibitor			> 10000 nM
O=C(c1cccc(S(=O)(=O)N2CCc3ccccc3C2)c1)N1CCO[C@H](c2ccc(F)cc2)C1	CACNA1C	calcium signal, fluorescence			4740 nM

Compound	target	test	test system	setting	IC50
COc1cccc2c(NCc3ccccc3)nc(Nc3cccc(F)c3)nc12	VCP (Homo sapiens, UniProt P55072)	enzyme activity, inhibitor			500 nM
CC[C@H](C)[C@H](NC(=O)[C@H](CCC(=O)O)NC(=O)[C@@H](NC(=O)[C@H](CCC(N)=O)NC(=O)[C@@H](N)CCCCN)[C@@H](C)CC)C(=O)N[C@@H](CCCCN)C(=O)N[C@@H](CCCCN)C(=O)N[C@@H](Cc1ccccc1)C(=O)N[C@@H](CCCCN)C(=O)O	GJA1 (Homo sapiens, UniProt P17302)	ATP release, inhibitor	C6-Cx43	5 min, extracellular application, added: A23187 2.2 µM	~47000 nM
Cc1cc2c(NC(=O)N[C@@H]3CC(C)(C)Oc4cc(C(F)(F)F)ccc43)c(C)ccc2cn1	TRPV1	calcium signal, antagonist, fluorescence			144 nM
O=C(NCCCN1CCC(Cc2ccccc2)CC1)c1ccc2ccccc2n1	SLC6A2 (Homo sapiens, UniProt P23975)	transporter uptake, inhibitor, radiometric			1020 to 5660 nM
O=C(O)C(CO)NCc1cc(Cl)c(OCc2cccc(-c3ccccc3)c2Br)cc1OCc1cccnc1 (centres unmarked)	CD28/CD86 (Homo sapiens, UniProt P10747+P42081)	PD-1/PD-L1 interaction, inhibitor, ELISA			> 10000 nM
CCCCCCCCCC(=O)OCCN1CCN(c2cc(Nc3ncc(C(=O)Nc4c(C)cccc4Cl)s3)nc(C)n2)CC1	CSK (Homo sapiens, UniProt P41240)	enzyme activity, inhibitor			3200 nM
O=C(NC(=S)Nc1nc(-c2ccccc2)cc(-c2ccc(Cl)cc2)n1)c1ccc(Cl)cc1	alpha-amylase	inhibitor			1510 ± 39 nM
O=C(Oc1ccccc1)N1CCC(CCn2ccc3ccc(F)cc32)CC1	Faah (Rattus norvegicus, UniProt P97612)	enzyme activity, inhibitor			23 nM
CNC(=O)C1CCN(c2ccccc2NC(=O)c2ccc(-c3cccc(O)c3)c(C)c2)CC1	EPHA5 (Homo sapiens, UniProt P54756)	target engagement in cells, BRET			15600 nM
CCNC(=O)[C@H](CC(C)C)NC(=O)[C@H](Cc1c[nH]cn1)NC(=O)CNC(=O)[C@@H](NC(=O)[C@H](C)NC(=O)[C@H](Cc1c[nH]c2ccccc12)NC(=O)[C@H](CCC(N)=O)NC(=O)[C@H](N)Cc1ccccc1)C(C)C	GRPR	ligand displacement, radioligand			16.4 nM
CN(Cc1ccccc1NC(=O)c1cc2ccccc2[nH]c1=O)C1CCCCC1	DNA topoisomerase 4 subunit B, with ParC subunit (parE, Escherichia coli K-12, UniProt P20083)	DNA relaxation, inhibitor			> 30000 nM
COc1ccc2cc(C(=O)NCCN3CCC(Cc4ccccc4)CC3)ccc2c1	SLC6A3 (Homo sapiens, UniProt Q01959)	transporter uptake, inhibitor, radiometric			1080 to 8400 nM
O=C(O)c1ccc(OCCCCCCCCOc2ccc(C(=O)O)cc2)cc1	Dihydrofolate reductase type 2 (Escherichia coli, UniProt P00383)	enzyme activity, inhibitor		pH 7	≥ 500000 nM
CC(=O)N[C@@H](CCCNC(=O)[C@H](Cc1ccc([N+](=O)[O-])cc1)NC(=O)[C@H](Cc1ccco1)NC(=O)[C@H](CC1CC1)NC(C)=O)C(N)=O	SRC	Z′-LYTE		added: ATP at Km	> 100000 nM
C=C(F)C(=O)Nc1cnn2ccc(-c3ccc(C4CCCCC4)cc3)nc12	TEAD4 (Homo sapiens, UniProt Q15561)	TEAD palmitoylation, inhibitor	HEK293T expressing FLAG-tagged target	24 h, added: alkyne palmitate	190 nM
O=C(NCc1ccc2c(c1)OCO2)c1ccnc(C(=O)NCc2ccc3c(c2)OCO3)c1	Collagenase 3 (MMP13, Homo sapiens, UniProt P45452)	enzyme activity, inhibitor			77 nM and 140 nM
CCOc1cncc(-c2ccc(NC(=O)C3(c4ccnc(NS(=O)(=O)C5CC5)n4)CCOCC3)nc2)n1	CTP synthase 2 (CTPS2, Homo sapiens, UniProt Q9NRF8)	enzyme activity, RapidFire mass spectrometry	human	geometric mean	12600 nM
CC1=CC(C)=[N+]2C1=C(CCCCc1cn(CC(=O)N3CCc4nc(NC(=O)[C@H]5CCN(C#N)C5)sc4C3)nn1)c1c(C)cc(C)n1[B-]2(F)F	UCHL1 (Homo sapiens, UniProt P09936)	enzyme activity, inhibitor, fluorescence		with preincubation	~1000 nM
CC(C)c1ccc2nc3ccc(C(=O)NCCN4CCN(c5ccccc5)CC4)cn3c(=O)c2c1	TRPV4 (Homo sapiens, UniProt Q9HBA0)	calcium signal, antagonist			363 nM
C[C@H](OP(=O)(O)O)[C@H]1NC(=O)[C@@H](CCCNC(=N)N)NC(=O)[C@@H](CCCNC(=N)N)NC(=O)[C@H](CCCNC(=N)N)NC(=O)[C@H](Cc2c[nH]c3ccccc23)NC(=O)[C@H](Cc2ccc3ccccc3c2)NC(=O)[C@@H]2CCCCN2C1=O	PIN1 (Homo sapiens, UniProt Q13526)	fluorescence anisotropy competition		added: FITC-labelled probe	1540 ± 270 nM

Excerpt of the above:
Compound	target	test	test system	setting	IC50
CNC(=O)C1CCN(c2ccccc2NC(=O)c2ccc(-c3cccc(O)c3)c(C)c2)CC1	EPHA5 (Homo sapiens, UniProt P54756)	target engagement in cells, BRET			15600 nM
CCNC(=O)[C@H](CC(C)C)NC(=O)[C@H](Cc1c[nH]cn1)NC(=O)CNC(=O)[C@@H](NC(=O)[C@H](C)NC(=O)[C@H](Cc1c[nH]c2ccccc12)NC(=O)[C@H](CCC(N)=O)NC(=O)[C@H](N)Cc1ccccc1)C(C)C	GRPR	ligand displacement, radioligand			16.4 nM
CN(Cc1ccccc1NC(=O)c1cc2ccccc2[nH]c1=O)C1CCCCC1	DNA topoisomerase 4 subunit B, with ParC subunit (parE, Escherichia coli K-12, UniProt P20083)	DNA relaxation, inhibitor			> 30000 nM
COc1ccc2cc(C(=O)NCCN3CCC(Cc4ccccc4)CC3)ccc2c1	SLC6A3 (Homo sapiens, UniProt Q01959)	transporter uptake, inhibitor, radiometric			1080 to 8400 nM
O=C(O)c1ccc(OCCCCCCCCOc2ccc(C(=O)O)cc2)cc1	Dihydrofolate reductase type 2 (Escherichia coli, UniProt P00383)	enzyme activity, inhibitor		pH 7	≥ 500000 nM
CC(=O)N[C@@H](CCCNC(=O)[C@H](Cc1ccc([N+](=O)[O-])cc1)NC(=O)[C@H](Cc1ccco1)NC(=O)[C@H](CC1CC1)NC(C)=O)C(N)=O	SRC	Z′-LYTE		added: ATP at Km	> 100000 nM
